# Measurements collected from several papers.
# Parts stem from different laboratories: compare values within a part only.

# Series 1
# Target: Protein C-ets-1 (ETS1, Homo sapiens, UniProt P14921, residues 1-441, K379A, full length assumed)
# Technique: protein-binding microarray
# Molecule type: double-stranded DNA, one strand shown
# Sample: in vitro
# Tested at: not given
# Setting: k-mer, scored over probes, only values ≥0.25
# Direction: higher = stronger binding
# Residues (chain): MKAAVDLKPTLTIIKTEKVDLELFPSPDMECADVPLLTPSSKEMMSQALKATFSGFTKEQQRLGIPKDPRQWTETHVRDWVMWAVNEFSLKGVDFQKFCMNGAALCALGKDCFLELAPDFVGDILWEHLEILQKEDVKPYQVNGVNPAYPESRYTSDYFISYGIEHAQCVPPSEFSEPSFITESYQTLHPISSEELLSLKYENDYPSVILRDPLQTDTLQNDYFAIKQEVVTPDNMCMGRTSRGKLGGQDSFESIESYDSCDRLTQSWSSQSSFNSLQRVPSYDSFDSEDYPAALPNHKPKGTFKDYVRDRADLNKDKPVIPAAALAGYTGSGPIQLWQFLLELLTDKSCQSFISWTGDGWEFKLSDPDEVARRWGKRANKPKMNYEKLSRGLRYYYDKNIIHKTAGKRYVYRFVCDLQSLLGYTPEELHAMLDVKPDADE
Strand,E-score
AGAACGCG,0.273
TGATATCA,0.287
CCCGGAAG,0.366
GGAATGTA,0.273
AACCGTCG,0.326
CCGCCGGA,0.284
ATTTCCGG,0.474
ATTTAATG,0.286
ACAGGTAA,0.265
TTTACAAA,0.256
CTTTTACC,0.267
GACACACC,0.254
ACACCGGT,0.435
CGGTCTGC,0.269
CCGGGGTA,0.299
GAGCGGAA,0.281
ACCGGAGT,0.396
CCGGGATA,0.313
ACGCCACA,0.279
CGGCGGTC,0.272
GTCGGATA,0.326
CCGGCGAA,0.307
AGCCGGAT,0.262
ATACCGCC,0.252
ACTGTCGG,0.273

# Series 2
# Target: Ras GTPase-activating protein-binding protein 1, full length (G3BP1, Homo sapiens, UniProt Q13283)
# UniProt Q13283, sequence (whole entry, looked up): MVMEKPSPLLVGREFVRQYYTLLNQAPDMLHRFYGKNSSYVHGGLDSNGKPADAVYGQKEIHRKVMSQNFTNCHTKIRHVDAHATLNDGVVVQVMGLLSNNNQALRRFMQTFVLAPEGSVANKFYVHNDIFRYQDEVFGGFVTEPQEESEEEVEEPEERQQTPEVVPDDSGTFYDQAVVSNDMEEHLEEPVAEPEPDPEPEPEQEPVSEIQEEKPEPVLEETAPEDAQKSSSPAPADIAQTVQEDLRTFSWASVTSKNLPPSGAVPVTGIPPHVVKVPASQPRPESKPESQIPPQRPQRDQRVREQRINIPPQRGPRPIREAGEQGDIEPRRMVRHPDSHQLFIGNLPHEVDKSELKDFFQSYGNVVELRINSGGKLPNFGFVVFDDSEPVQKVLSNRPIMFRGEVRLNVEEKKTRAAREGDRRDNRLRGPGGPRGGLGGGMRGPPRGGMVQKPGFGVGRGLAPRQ
# Technique: RNA Bind-n-Seq
# Molecule type: RNA
# Sample: in vitro
# Tested at: 200 nM
# Setting: whole 134-nt RNA, ends assumed
# Together with: 150 mM LiCl
# Reference: input library
# Direction: higher = stronger binding
# Library: 7-deaza-guanosine replaces G
# Shared flanks, not repeated: GGGAGUUCUACAGUCCGACGAUC … UGGAAUUCUCGGGUGUCAAGG
Strand,log2 enrichment
CUCAAGUCCUGUGCUACACAUCGUAUGUACCGAAUCGGAAAGGAAAGGUUUGGAAAGUAUUAUGUUACGCCGUUCGGAUCUGCACUUCCA,-0.297
GUCCUGUGCUACACAUCGUAUGUACCGAAUCGGAAAAAAGGAAAAAAGGAAAAAAGGGGAAAGUAUUAUGUUACGCCGUUCGGAUCUGCA,-0.55
AGUCCUGUGCUACACAUCGUAUGUACCGAAUCGGUUUUUGGAAAAAGGAAAAAAAGGAAAGUAUUAUGUUACGCCGUUCGGAUCUGCACU,-1.8
CAAGUCCUGUGCUACACAUCGUAUGUACCGAAUCGGAAAGGAAAGGUUUUUUUGGAAAGUAUUAUGUUACGCCGUUCGGAUCUGCACUUC,-0.801
GUCCUGUGCUACACAUCGUAUGUACCGAAUCGGCCCCCCGGCCCCCCGGGCCCCCCGGAAAGUAUUAUGUUACGCCGUUCGGAUCUGCAC,-0.197
CCUGUGCUACACAUCGUAUGUACCGAAUCGGGGCCCCCCCGGCCCCCCCGGCCCCCCCGGAAAGUAUUAUGUUACGCCGUUCGGAUCUGC,0.604
GCAGGAAGUAAAAACAAAUGGAAAUGCUUCGGAUAGUGGCAGGGGUGGGGGUUGCUAAGGAAAAGGUGGGAUGGGAGUGGGUAAAGAGUU,0.0153
UGGCCCUGGUGGCAUGCGGGGAGGAAGAGGUGGCCUCAUGGAUCGUGGUGGUCCCGGUGGAAUCUUCAGAGGUGGCCGUGGUGGAGACAG,0.329
CUCAAGUCCUGUGCUACACAUCGUAUGUACCGAAUCGGAAAGGAGGUUUUUGGAAAGUAUUAUGUUACGCCGUUCGGAUCUGCACUUCCA,0.0614
GCAGGAAGUAAAAACAAAUGGAAAUGCUUCGGAUAGUGGCAGGGGUGGGGGUGGCUAAGGAAAGGGUGGGAUGGGAGUGGGUAAAGAGUU,0.0816
CCUCAAGUCCUGUGCUACACAUCGUAUGUACCGAAUCGGAGGGAGGGGAGGGGAAAGUAUUAUGUUACGCCGUUCGGAUCUGCACUUCCA,-0.23

# Series 3
# Target: RNA binding protein fox-1 homolog 2, RRM domain, GST-SBP tag (RBFOX2, Homo sapiens, UniProt O43251-10, residues 100-194)
# Technique: RNA Bind-n-Seq
# Molecule type: RNA
# Sample: in vitro
# Tested at: 365 nM
# Setting: natural RNA segment, single round, ends assumed
# Reference: no-protein control
# Direction: higher = stronger binding
# Shared flanks, not repeated: GGGAGUUCUACAGUCCGACGAUC … UGGAAUUCUCGGGUGCCAA
# Residues (chain): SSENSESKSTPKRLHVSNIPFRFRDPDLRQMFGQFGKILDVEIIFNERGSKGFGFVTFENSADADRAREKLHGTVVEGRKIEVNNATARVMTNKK
Strand,RBNS enrichment (R)
UUUAGUGAUAUUUAGACCCCUCUCAGUUAAGAAAUGCUUAGAUUAAAAAAAAAAAAUUACGUAGGAUUAAUACAGAAAUUUAAUCAUGUCUGAUUAAUUGCUCUAUUAAA,0.959
CUGUGACAAUCAGCAAAGCCCCACCCAGGCCCCCAUCUGGGAUGAUGGGAGAGCUCUGGCAGAUGUCCCAAUCCUGGAGGUCAUCCAUUAGGAAUUAAAUUCUCCAGCCU,0.338
UGGACUUAUCAUAUUUUUAUAUAUUUUUAAAUUUCUGUACCUUUAUUGUUAAACACCAAGUUUCACAUACAAGAGGUUUCUUUCAUUGUCAAAUUAAGAUAUGUAUUUGU,0.562
CUUGUAUUUUUCAGAUUAUUACAACACACUGUGCAGAAUUAGACAGAUGUUCCGUGGUGUUUGGUUUCCCUUUCUUCUCUCUCCUGCUCACUCUGCAUUAUAGCAGCAGC,2.75
ACCUGCCCAGGCAGCCCCUCGUCACCUACUCCCCGAAGUUACCAGCUCAGCUCGAGUCUUCAGGGCUGGGCUCCUAGGCUGCCCAUCCUACUUCUACCCUCACUGGCCUC,0.355
CCUGUCUUCCUCUGCACCGUGCUCAGGGAAAUGGCCUUCAUUCCAGAGGCCAGCUGUCUGCCUGACUUUUCCUCCGUUCUUGGCCUUCUCCCCUUCCCAUCUUCUGAGCU,1.05
AGAAGAAGGAAAAGAAGAAGUGCUUUUCAAAUCUUUCAAAGGGCUACAUGUAACCAUCUGGAAUGACCACAUCUACACCCUCCCAGACUCCGUCCUUUCAUUUCAACAUA,0.423
CAGACAAACCCCGGCCUGCGCGCCUGCAGAGCGGCGGCUGGAGACUGGAGCCACCGCCUCGCGGGUGCAGCAGCACAGCAGGCACGGUUCGGGGAGGGAUUCGGCAUGGC,0.817
CCACAAGGCUUCCUGAAAUCAAAUGUUAGGUGUUGAGAGUAGCUGCAGUCUCGGGAUAACUUGUGAGUUCCCUGGGUCCUGGAGGGUGCAGGGUUUGUGGAACAGUAGUA,1.27
UUCCUGUAUAUAAAGGAUGUAAUUACAGGAUAUAGUGGUAAUGCAUUAAAACAUGAACCUCAUUUUAGAAAUCGACAGCUAUGGUAUUUUUUUAAUGAUCAGCUUUUCUG,15.6
UAAAACAAGUGAAUAGAUCCAAGUGAAUAAAGUAAUUUCUCCAUUGACUUUUUUUUUUAACUGCUAGUCAUGUGGCUGUAACUAUGGGUUGCUCUUUAUUAUUCCCUGAU,0.768
GUAGUGUAAGUGGAGAACCAGGAUCCUGAGAUGAGCUUGAGCUUUAAAAACUUGGGACUAUACAUGGUGAACUUACAGGAGGUUAGGGGGGAAAUAUUACUUAUCCAUCA,0.388

# Series 4
# Target: Prothrombin, mature alpha-thrombin (F2, Homo sapiens, UniProt P00734)
# Technique: aptamer microarray, sandwich
# Molecule type: DNA with 2'F-ANA
# Sample: in vitro
# Tested at: 200 nM
# Setting: whole 15-mer aptamer, many near background
# Together with: Cy3 exosite-II aptamer, 400 nM
# Direction: higher = stronger binding
# Strand: GGTTGGTGTGGTTGG
Modification,mean fluorescence intensity
2'F-ANA at 1 2 3 5 7 8 9 11 13 15,58 a.u.
2'F-ANA at 1 3 5 8 9 10 11 14 15,83.1 a.u.
2'F-ANA at 1 2 3 4 5 7 8 9 13 14 15,47.9 a.u.
2'F-ANA at 2 4 6 7 8 11 14 15,99 a.u.
2'F-ANA at 1 2 8 13 14,89 a.u.
2'F-ANA at 1 2 3 5 6 7 10 11 12 14 15,51.1 a.u.
2'F-ANA at 1 3 5 6 7 8 9 10 14,48.8 a.u.
2'F-ANA at 1 3 6 7 15,242 a.u.
2'F-ANA at 1 7 11 13 15,144 a.u.
2'F-ANA at 1 2 3 4 5 7 8 9 12 13 14,51.5 a.u.
2'F-ANA at 2 5 7 9 11 12 13 15,113 a.u.
2'F-ANA at 3 4 6 10 13,218 a.u.
2'F-ANA at 1 2 4 10 11 14 15,56.8 a.u.
2'F-ANA at 3 5 6 7 8 10 11,204 a.u.
2'F-ANA at 2 4 7 8 9 11 12 14 15,126 a.u.
2'F-ANA at 3 4 6 7 8 9 11 12 15,775 a.u.
2'F-ANA at 1 3 5 6 7 13 15,56 a.u.
2'F-ANA at 4 5 11 12 14 15,42.3 a.u.
2'F-ANA at 1 5 6 9 10 13,43.3 a.u.
2'F-ANA at 3 6 10 11 13 14,322 a.u.
2'F-ANA at 2 4 7,396 a.u.
2'F-ANA at 3 7 8 9 11 12 13,1160 a.u.
2'F-ANA at 1 2 4 5 6 11 12 14,48.5 a.u.
2'F-ANA at 2 6 11 15,320 a.u.
2'F-ANA at 2 4 5 6 8 10 11 13,45.2 a.u.
